Experimental data pooled from the literature.
Each line is one published result; not all experiments were run side by side. Several values in a cell are separate wells, animals, samples, runs or records.
Sequence of UniProt Q05655 (whole entry, looked up): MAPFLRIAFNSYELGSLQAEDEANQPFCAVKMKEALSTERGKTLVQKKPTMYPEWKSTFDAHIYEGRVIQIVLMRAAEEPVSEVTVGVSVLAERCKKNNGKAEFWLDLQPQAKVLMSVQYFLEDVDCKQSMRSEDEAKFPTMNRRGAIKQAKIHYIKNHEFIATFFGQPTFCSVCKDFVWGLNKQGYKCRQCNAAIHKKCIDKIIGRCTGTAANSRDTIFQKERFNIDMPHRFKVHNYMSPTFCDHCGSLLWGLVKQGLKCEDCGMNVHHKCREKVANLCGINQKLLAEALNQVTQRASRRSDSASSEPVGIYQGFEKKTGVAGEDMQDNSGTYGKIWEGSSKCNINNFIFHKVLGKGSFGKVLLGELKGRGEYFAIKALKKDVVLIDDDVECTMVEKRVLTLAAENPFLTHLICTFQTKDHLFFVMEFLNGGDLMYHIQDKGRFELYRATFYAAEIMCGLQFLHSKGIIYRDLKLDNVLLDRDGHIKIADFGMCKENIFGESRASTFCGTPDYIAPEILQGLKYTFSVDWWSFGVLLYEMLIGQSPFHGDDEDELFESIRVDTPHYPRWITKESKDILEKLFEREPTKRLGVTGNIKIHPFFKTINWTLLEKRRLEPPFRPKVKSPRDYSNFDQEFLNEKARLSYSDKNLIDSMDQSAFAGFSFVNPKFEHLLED

SMILES	tested on	test	system	conditions	how to read	endpoint	result
CN(CCC=C1c2ccccc2CCc2ccccc21)N=O	TK6	–	–	5 µM, 4 h, together with: hamster liver S9	reference: vehicle	relative survival	51.9%
CC(C)C[C@@H](NC(=O)[C@H](N)CCCCN)C(=O)N1CCC[C@@H]1C(=O)N[C@H](Cc1ccccc1)C(=O)N[C@H](Cc1ccccc1)C(=O)N[C@H](C)C(N)=O	NGF-differentiated PC-12 neurons	–	–	20 µM, 24 h	reference: untreated	viability	97%
C[C@H]1CN(c2n[nH]c3nc(N[C@H]4CC[C@H](NS(=O)(=O)CCC(F)(F)F)CC4)ncc23)CCO1	PRKCD (Homo sapiens, UniProt Q05655)	inhibitor, Kinobeads competition profiling	–	0.032 µM	reference: vehicle	relative abundance	1.04
CCN(CC)CCNC(=O)c1cc(-c2ccc(Br)s2)nc2ccccc12	Vero-E6	CellTiter-Glo ATP	–	concentration not given, 72 h, retest 8-point duplicates	reference: DMSO 0%, hyamine -100%, more negative, more toxic	cytotoxicity efficacy	-86.5%
CO[C@H]1C[C@@H]2CC[C@@H](C)[C@@](O)(O2)C(=O)C(=O)N2CCCC[C@H]2C(=O)O[C@H]([C@H](C)C[C@@H]2CC[C@@H](OC(=O)NCCOCCOCCOCCOCCOCCOCCOCCOCCC(=O)N3CCc4cc(Cn5nc(-c6ccc7oc(N)nc7c6)c6c(N)ncnc65)ccc4C3)[C@H](OC)C2)C[C@@H](O)[C@H](C)/C=C(\C)[C@@H](O)[C@@H](OC)C(=O)[C@H](C)C[C@H](C)/C=C/C=C/C=C/1C	–	phase 1 dose escalation, refers to: nausea	advanced solid tumour patients	intravenous, 10 mg weekly, any grade	–	TRAE incidence	50%
CCCCNC(=O)C1CCCN(Cc2nc(-c3ccc(Cl)cc3)oc2C)C1 (stereo not drawn)	Vero-E6	CellTiter-Glo ATP	–	72 h, second round 5-point	reference: DMSO 0%, hyamine -100%, more negative, more toxic	maximum response	-26.4%
O=C1c2c(O)c(=O)ccn2N([C@@H]2c3ccccc3SCc3c2ccc(F)c3F)[C@@H]2COCCN12	–	–	BALB/c mice, plasma	oral, 15 mg/kg baloxavir marboxil, 8 h	–	plasma concentration	24 ng/mL
CC(=O)N1CCC(C(=O)N2CCN3C(=O)c4cc(-c5ccccc5)ccc4NC(=O)C3C2)CC1 (stereo not drawn)	Salmonella typhimurium	–	TA1535	1581 µg/plate, together with: rat liver S9	–	revertants per plate	15.5
COc1cc2c(Oc3ccc4[nH]c(C)cc4c3F)ccnc2cc1OCC1(N)CC1	–	–	paediatric refractory sarcoma patients	12 mg	–	Myalgia incidence	0%
O=c1ccc2ccccc2o1	HepG2	refers to: cellular ATP	–	6 h	–	point of departure	640 µM
CC(C)C[C@@H](N)C(=O)N[C@H](CC(C)C)C(=O)N[C@H](Cc1ccccc1)C(=O)N[C@H](Cc1ccccc1)C(=O)N[C@H](C)C(=O)N[C@H](CCC(=O)O)C(N)=O	NGF-differentiated PC-12 neurons	–	–	80 µM, 24 h	reference: untreated	viability	95.6%
CC(C)(C)NCc1ccc(Nc2ccnc3cc(Cl)ccc23)cc1O	Vero-E6	CellTiter-Glo ATP	–	concentration not given, 72 h, second round 5-point	reference: DMSO 0%, hyamine -100%, more negative, more toxic	cytotoxicity efficacy	-17.8%
CC(C)C[C@H](NC(=O)[C@H](C)NC(=O)[C@@H](NC(=O)[C@H](CCCNC(=N)N)NC(=O)[C@H](CC(C)C)NC(=O)[C@H](Cc1c[nH]c2ccccc12)NC(=O)[C@@H]1CCCN1C(=O)[C@@H](N)CCCCN)C(C)C)C(=O)N[C@@H](CS)C(=O)N1CCC[C@H]1C(=O)NCC(=O)O	HEp-2	WST-1	–	32 µM, 24 h	–	viability	109% and 103% and 101%
CN1CC[C@@H](c2c(O)cc(O)c3c(=O)cc(-c4ccc(C(F)(F)F)cc4Cl)oc23)[C@@H]1CO	–	refers to: Hypertension	AML	oral, 200 mg, intermittent dosing	–	patients with adverse event	10%
CC(C)C[C@@H](N)C(=O)N[C@H](CC(C)C)C(=O)N[C@H](Cc1ccccc1)C(=O)N[C@H](Cc1ccccc1)C(=O)N[C@H](C)C(N)=O	NGF-differentiated PC-12 neurons	–	–	20 µM, 24 h	reference: untreated	viability	86%
CN(CC[C@H](Oc1cccc2ccccc12)c1cccs1)N=O	TK6	–	–	2.5 µM, 4 h, together with: hamster liver S9	reference: vehicle	relative survival	65.6%
CC(C)C[C@@H](NC(=O)[C@H](N)CCCCN)C(=O)N1CCC[C@@H]1C(=O)N[C@H](Cc1ccccc1)C(=O)N[C@H](Cc1ccccc1)C(N)=O	NGF-differentiated PC-12 neurons	–	–	40 µM, 24 h	reference: untreated	viability	100%
CCCCN(CCCC)CCCNC(=O)c1ccc2nc(N3CCCCC3)sc2c1	Vero-E6	CellTiter-Glo ATP	–	72 h, second round 5-point	reference: DMSO 0%, hyamine -100%, more negative, more toxic	maximum response	-4.82%
